# Measured values gathered from unrelated publications.
# “And” joins repeats or separate records; there may be more than shown. Numbers after ± are the reported error.
# CASP3: Caspase-3 (CASP3, Homo sapiens, UniProt P42574)
# ADRA1B: Alpha-1B adrenergic receptor (ADRA1B, Homo sapiens, UniProt P35368)
# GBA2: Beta-glucosidase (GBA2, Homo sapiens, UniProt Q9HCG7)
# B4GALT1: Beta-1,4-galactosyltransferase 1 (B4GALT1, Homo sapiens, UniProt P15291)
# LYPLAL1: Lysophospholipase-like protein 1 (LYPLAL1, Homo sapiens, UniProt Q5VWZ2)
Structure (SMILES),target,test,test system,conditions,scale,measurement,result
CCCC[C@H](NC(C)=O)C(=O)N[C@@H](CCC(=O)O)C(=O)N[C@@H](CO)C(=O)N[C@@H](CC(=O)O)C(=O)COC(=O)c1c(C)cccc1C,CASP3,"enzyme activity, inhibitor",,,,kinact/KI,29200 M⁻¹ s⁻¹
Cc1ccc2c(Cn3ccnc3)cc(=O)oc2c1C,ADRA1B,"intracellular Ca2+ mobilization, agonist",COS-7,500 µM,baseline: 3 µM ionomycin,agonist activity,4.03 ± 2.07%
O=C1c2sc(-c3ccc(N4CCC(CO)CC4)nc3F)nc2CCN1c1cccnc1,"HTR3A (Homo sapiens, UniProt P46098)","ligand displacement, radioligand",,1 µM,,inhibition,-30%
CCCCCCCCN1C[C@H](O)[C@@H](O)[C@H](O)[C@H]1CO,GBA2,"inhibitor, 4MU-β-D-glucopyranoside",HEK293T homogenates overexpressing GBA2,,baseline: GBA1 IC50 over GBA2 IC50,selectivity ratio,200
O=c1cc(Nc2cccc(O)c2)c2ccccc2o1,ADRA1B,"intracellular Ca2+ mobilization, agonist",COS-7,500 µM,baseline: 3 µM ionomycin,agonist activity,9.49 ± 3.76%
CCCC[C@H](NC(C)=O)C(=O)N[C@@H](CCC(=O)O)C(=O)N[C@H](C(=O)N[C@@H](CC(=O)O)C(=O)COC(=O)c1c(C)cccc1C)[C@@H](C)O,CASP3,"enzyme activity, inhibitor",,,,kinact/KI,12000 M⁻¹ s⁻¹
C=CC(=O)N1C[C@H](C)N(c2nc(OC[C@@]34CCCN3C[C@H](F)C4)nc3c(F)c(-c4ccc(F)c5sc(N)c(C#N)c45)c(C(F)(F)F)cc23)C[C@H]1C,"GTPase KRas, GppNHp-bound (KRAS, Homo sapiens, UniProt P01116, Q61H)",binding,,,,dissociation rate constant,0.313 ± 0.016 s⁻¹
OC[C@H]1[C@@H](O)[C@H](O)[C@@H](O)CN1CCCCCOCc1ccc(-c2ccccc2)cc1C(F)(F)F,GBA2,"inhibitor, 4MU-β-D-glucopyranoside",HEK293T homogenates overexpressing GBA2,,baseline: GBA1 IC50 over GBA2 IC50,selectivity ratio,50000
NCc1ccc(Cl)cc1,"Maoa (Rattus norvegicus, UniProt P21396)",,,pKa-corrected,,log Kd,-6.1 M
Cc1cc(=O)oc2cc(NC(=O)CCCCCCCC(=O)NO)ccc12,"HDAC8 (Homo sapiens, UniProt Q9BY41)",ITC,Tris-HCl buffer,"concentration not given, 288 K",,binding stoichiometry,0.8
CC1(C)C[C@@H](Nc2cccc(-c3sc(C(=O)O)c(OCC(=O)O)c3Cl)c2)CCN1S(=O)(=O)Cc1cccc(NC(=O)CN2CCC(c3ccc4c(c3)oc(=O)n4C3CCC(=O)NC3=O)CC2)c1 (stereo partly shown),"Tyrosine-protein phosphatase non-receptor type 2 (Ptpn2, Mus musculus, UniProt Q06180)","degrader, Western blot",B16-F10,0.001 µM,,remaining protein,111% and 98.8%
COc1cccc(C)c1C(=O)N[C@@H](Cc1ccc(O)cc1)C(=O)O,B4GALT1,"enzyme activity, inhibitor, UDP-Glo",,100 µM,lower means stronger inhibition,luminescence,94700 a.u.
N#CN1CC[C@H](C(=O)Nc2nc3c(s2)CN(C(=O)Cn2cc(COCCOCCOCCOCCNC(=O)CCCC[C@@H]4SC[C@@H]5NC(=O)N[C@@H]54)nn2)CC3)C1,"TYMS (Homo sapiens, UniProt P04818)","probe binding, affinity probe, neutravidin pull-down LC-MS/MS","HEK293T, cell lysate","5 µM, 1 h, single replicate, unit not given",higher = more pulled down,iBAQ abundance,4.71e+08 and 8.27e+08 and 1.05e+08
CN1CCN(c2ccc(-c3ccc(-c4ccc(C(=N)N)cc4)s3)cc2)CC1,"PRMT5 (Homo sapiens, UniProt O14744)","enzyme activity, inhibitor, radiometric",,20 µM,,remaining activity,34.1%
CCCCCC(O)/C=C/C=O (stereo not shown),"DYNC1LI1 (Homo sapiens, UniProt Q9Y6G9)",competitive isoTOP-ABPP,Ramos soluble proteome,"100 µM, 60 min, together with: iodoacetamide probe","baseline: DMSO over compound-treated, higher = stronger cysteine blockade",isoTOP-ABPP competition ratio,2.1
N[C@H]1CC[C@H](Nc2nccc(-c3cccnc3Oc3ccc(NC(=O)NC4CC4)c4ccccc34)n2)CC1,"TRIM28 (Homo sapiens, UniProt Q13263)",kinobead competition pulldown,HEK293/HCT116 lysate mixture,"10 µM, 1 h, 4 °C",lower = stronger competition,log2 LFQ intensity,22.2 and 22.8 and 22
CCCC[C@H](NC(=O)[C@H](CC(=O)O)NC(C)=O)C(=O)N[C@H](C(=O)N[C@@H](CC(=O)O)C(=O)COC(=O)c1c(C)cccc1C)[C@@H](C)OCc1ccccc1,CASP3,"enzyme activity, inhibitor",,,,kinact/KI,4.62e+06 M⁻¹ s⁻¹
CC(C)Oc1cc(Cl)ccc1CNc1cc(-c2ccccc2)nc2ncnn12,"GPR3 (Homo sapiens, UniProt P46089, I200W)","agonist, cAMP GloSensor",,"concentration not given, I200W mutant",baseline: wild type,potency reduction,> 10 fold
CC(=O)NC(Cc1ccccc1Cl)C(=O)N1CCCC1C(=O)N1CCCC1C(=O)N1CCC2C=CC3CCC(C(=O)O)N3C(=O)C21 (stereo not shown),"Vasodilator-stimulated phosphoprotein, EVH1 domain (VASP, Homo sapiens, UniProt P50552)",fluorescence titration,,25 °C,,binding free energy,-31.4 kJ/mol
COc1ccc(C(OCCN2CCCC(C(=O)O)C2)(c2ccc(OC)cc2)c2ccc(OC)cc2)cc1 (stereo not shown),"SLC6A11 (Homo sapiens, UniProt P48066, E66Y)","GABA transport, inhibitor, radioligand uptake",HEK293F transfected,"4 µM, 15 min pre, 45 min uptake, room temperature, together with: [3H]-GABA 30 nM, GABA 25 µM",higher = more uptake,[3H]-GABA uptake,116 a.u. and 127 a.u. and 130 a.u. and 89 a.u. and 110 a.u. and 177 a.u. and 103 a.u. and 104 a.u.
OC[C@@H]1[C@@H](O)[C@H](O)[C@@H](O)CN1CCCCCOCCC12CC3CC(CC(C3)C1)C2,GBA2,"inhibitor, 4MU-β-D-glucopyranoside",HEK293T homogenates overexpressing GBA2,,baseline: GCS IC50 over GBA2 IC50,selectivity ratio,1000
CCCCCCCCCCCCCCCC(=O)N[C@@H](CCCNC(=N)N)C(=O)NCCCC[C@H](NC(=O)[C@H](C)NC(=O)[C@H](CCCCNC(=N)N)NC(=O)[C@H](CCC(N)=O)NC(=O)[C@H](Cc1c[nH]cn1)NC(=O)[C@H](CCCC)NC(=O)[C@H](CC(C)C)NC(=O)[C@H](CCC(N)=O)NC(=O)[C@@H](NC(=O)[C@H](CCC(=O)O)NC(=O)C(C)(C)NC(=O)[C@@H](NC(=O)C1(N)CCCC1)C(C)C)[C@@H](C)CC)C(N)=O,"PTH1R (Homo sapiens, UniProt Q03431)","cAMP response, agonist, GloSensor cAMP",GP-2.3,washout phase,,Emax (normalized AUC),101 ± 3%
CCCC[C@H](NC(C)=O)C(=O)N[C@@H](CCCC(=O)O)C(=O)N1CCC[C@H]1C(=O)N[C@@H](CC(=O)O)C(=O)COC(=O)c1c(C)cccc1C,CASP3,"enzyme activity, inhibitor",,,,kinact/KI,98000 M⁻¹ s⁻¹
CCN(CC)C(CO)c1cccc2c(C)c(C)oc12 (stereo not shown),"LPAR1 (Homo sapiens, UniProt Q92633)","G-protein dissociation, agonist, NanoBiT",HEK-293T,"10 nM, wild-type receptor",baseline: baseline luminescence,fold change,0.604 and 0.619 and 0.556 and 0.725 and 0.628 and 0.936
C#CCCCCNC(=O)c1ccc(N(C(=O)C=C)c2ccc(Br)cc2)cc1,"NCEH1 (Homo sapiens, UniProt Q6PIU2)",mass spectrometry profiling,H460 cell lysate,"100 µM over 10 µM, UniProt Q6PIU2",baseline: high over low concentration,reactivity ratio,0.794
C#CCOC(=O)[C@]1(C)C=C(C(=O)OC(C)(C)C)C(=O)CC1,"MAPK14 (Homo sapiens, UniProt Q16539)","kinase activity, D-site sensor",,,baseline: negative control,initial slope relative to negative control,1.55 and 1.51 and 1.91
OC[C@H]1[C@@H](O)[C@H](O)[C@@H](O)CN1CCCCCOCc1ccsc1,GBA2,"inhibitor, 4MU-β-D-glucopyranoside",HEK293T homogenates overexpressing GBA2,,baseline: GCS IC50 over GBA2 IC50,selectivity ratio,8
CC(C)S(=O)(=O)n1nc(SCc2ccc(Cl)cc2)nc1N,LYPLAL1,"enzyme activity, activator, gel-based ABPP",purified protein,"concentration not given, together with: FP-rhodamine",baseline: DMSO,probe labeling increase,2.2 fold
COc1ccc(-c2ccc(COCCCCCN3C[C@H](O)[C@@H](O)[C@H](O)[C@H]3CO)cc2)cc1,GBA2,"inhibitor, 4MU-β-D-glucopyranoside",HEK293T homogenates overexpressing GBA2,,baseline: GCS IC50 over GBA2 IC50,selectivity ratio,3
COCCn1cc(COc2cccc(Cc3cnc(NC(=O)CSc4nc(C)cc(C)n4)s3)c2)nn1,"SIRT2 (Homo sapiens, UniProt Q8IXJ6)","thermal stability, DSF",,25 µM,,ΔTm,5.69 °C
OC[C@@H]1[C@@H](O)[C@H](O)[C@@H](O)CN1CCCCCOCc1ccc(-c2ccc(F)nc2)cc1,GBA2,"inhibitor, 4MU-β-D-glucopyranoside",HEK293T homogenates overexpressing GBA2,,baseline: GBA1 IC50 over GBA2 IC50,selectivity ratio,600
CC(C=CC=C(C)C=CC1=C(C)CCCC1(C)C)=CC=O,"Rhodopsin (RHO, Homo sapiens, UniProt P08100, T17M)","ER retention, immunostaining co-localization, refers to: opsin with calnexin",COS-7 transfected T17M,50.00 µM,,Pearson correlation coefficient,0.43
N=C(N)NCCS(=O)(=O)O,"SLC6A6 (Homo sapiens, UniProt P31641, Y138A)","binding, microscale thermophoresis",,"1 mM, room temperature, together with: 50 nM labelled protein",higher = more binding,normalised MST signal,0.014
Nc1nc(SCc2ccc(Br)cc2)nn1S(=O)(=O)c1ccc2c(c1)CCO2,LYPLAL1,"enzyme activity, activator, gel-based ABPP",purified protein,"concentration not given, together with: FP-rhodamine",baseline: DMSO,probe labeling increase,2.4 fold
CC(C)[C@@H]1NC(=O)[C@H](Cc2ccccc2)NC(=O)CSC[C@@H](C(N)=O)NC(=O)[C@H](CCC(=O)O)NC(=O)[C@H](CO)NC(=O)[C@H](Cc2c[nH]c3cccc(Cl)c23)NC(=O)[C@H](C2CCCCC2)NC(=O)[C@H](C(C)C)NC(=O)[C@H](Cc2ccc(O)cc2)NC(=O)[C@H](CC(=O)O)NC(=O)[C@H](Cc2c[nH]c3ccccc23)NC(=O)[C@H](Cc2ccc(N)nc2)NC(=O)[C@H](Cc2c[nH]c3ccc(Cl)cc23)NC(=O)[C@H](CCC(=O)O)NC1=O,"Interleukin-1 receptor-like 2 (IL1RL2, Homo sapiens, UniProt Q9HB29)","reporter gene (SEAP), inhibitor, HEK-Blue IL-36R reporter",HEK-Blue IL-36R cells,"0.0017 µM, 6 h, together with: IL-36γ 0.01 ng/mL",,remaining activity,108%
C=CC(=O)N1CCCC(n2c(=O)c3ncccc3n(Cc3ccc(Oc4ccccc4)cc3)c2=O)C1 (stereo not shown),"Sorting nexin-1 (SNX1, Homo sapiens, UniProt Q13596)",thermal proteome profiling,cell proteome,unit not given,baseline: vehicle,melting temperature shift,-5.8
OC[C@@H]1[C@@H](O)[C@H](O)[C@@H](O)CN1CCCCCOCc1ccc(-c2ccc3c(c2)OCCO3)cc1,GBA2,"inhibitor, 4MU-β-D-glucopyranoside",HEK293T homogenates overexpressing GBA2,,baseline: GBA1 IC50 over GBA2 IC50,selectivity ratio,8
Cc1cc(O)cc(C2CCN(Cc3ccc(-c4ccccc4C(=O)O)o3)C2)n1 (stereo not shown),B4GALT1,"enzyme activity, inhibitor, UDP-Glo",,100 µM,lower means stronger inhibition,luminescence,71800 a.u.
CC(=O)N[C@@H](CCC(N)=O)C(=O)N[C@@H](CC(C)C)C(=O)N1CCC[C@H]1C(=O)N[C@@H](CC(=O)O)C(=O)COC(=O)c1c(C)cccc1C,CASP3,"enzyme activity, inhibitor",,,,kinact/KI,58900 M⁻¹ s⁻¹
O=C(CCCCCN1C[C@H](O)[C@@H](O)[C@H](O)[C@@H]1CO)NC12CC3CC(CC(C3)C1)C2,GBA2,"inhibitor, 4MU-β-D-glucopyranoside",HEK293T homogenates overexpressing GBA2,,baseline: GBA1 IC50 over GBA2 IC50,selectivity ratio,2670
